Measured values pooled from the literature.
Every numbered part comes from another study and shows a few of its results, in no order.

Block 1
Target: Fragile X messenger ribonucleoprotein 1, C-terminal low-complexity region (Fmr1, Mus musculus, UniProt P35922)
Method: RNA Bind-n-Seq
Form: RNA
Matrix: in vitro
Tested at: 200 nM
Notes: whole 134-nt RNA, ends assumed
Added: 150 mM LiCl
Reference: input library
Direction: higher = stronger binding
Each molecule: 7-deaza-guanosine replaces G
Shared flanks, not repeated: GGGAGUUCUACAGUCCGACGAUC … UGGAAUUCUCGGGUGUCAAGG
| Strand | log2 enrichment |
| --- | --- |
| CCUGUGCUACACAUCGUAUGUACCGAAUCGGGGUUUUUUGGGUUUUUUGGGGUUUUUUGGAAAGUAUUAUGUUACGCCGUUCGGAUCUGC | 0.297 |
| UAACUUUAGAGGAGGAUCUGAUGGAUAUGGCAGUGGACGUGGAUUUGGGGAUAGCUAUAAUGGGUAUGGAGGAGGACCUGGAGGUGGCAA | 0.401 |
| UCCUGUGCUACACAUCGUAUGUACCGAAUCGGAAAAAAGGGAAAAAAGGGAAAAAAGGGGAAAGUAUUAUGUUACGCCGUUCGGAUCUGC | -0.82 |
| UUGAGAUUGGGUGGAUUCCUAUCAUCUGGAAUUCUGACUCCUCGGGUCUCCUUCUCUAGGUAGCCCAGCAGCAGUGAAGAUGCAGACUGA | -1.83 |
| GUCCUGUGCUACACAUCGUAUGUACCGAAUCGGGGAAAAAAAGGGGAAAGGGGAGGGGAAAGUAUUAUGUUACGCCGUUCGGAUCUGCAC | 1.02 |
| GUCCUGUGCUACACAUCGUAUGUACCGAAUCGGGUUUUUUUGGGUUUUUUUGGGUGGGAAAGUAUUAUGUUACGCCGUUCGGAUCUGCAC | -1.3 |
| AGUCCUGUGCUACACAUCGUAUGUACCGAAUCGGCCCCCGGGCCCCCGGCCCCCGGGAAAGUAUUAUGUUACGCCGUUCGGAUCUGCACU | -1.83 |
| AGUCCUGUGCUACACAUCGUAUGUACCGAAUCGGUUUUUUUGGAAAAAAAGGUUUGGAAAGUAUUAUGUUACGCCGUUCGGAUCUGCACU | -3.89 |
| UCAAGUCCUGUGCUACACAUCGUAUGUACCGAAUCGGGUUGGUUGGGGUUGGGGAAAGUAUUAUGUUACGCCGUUCGGAUCUGCACUUCC | -1.3 |
| CAAGUCCUGUGCUACACAUCGUAUGUACCGAAUCAAAUUUAAAUUUAAACCCAAAAAAGUAUUAUGUUACGCCGUUCGGAUCUGCACUUC | 0.95 |
| AAGUCCUGUGCUACACAUCGUAUGUACCGAAUCGGCCCCGGGGCCCCGGGGCCCCGGAAAGUAUUAUGUUACGCCGUUCGGAUCUGCACU | -2.13 |

Block 2
Target: Interferon regulatory factor 5, full length, phosphomimetic (IRF5, Homo sapiens, UniProt Q13568-2, residues 1-514, K96S/S451D/S453D/S456D/S462D)
Method: protein-binding microarray
Form: double-stranded DNA, one strand shown
Matrix: in vitro
Tested at: 250 nM
Notes: 60-bp whole probe
Added: salmon DNA 0.4 mg/ml
Reference: random background probes
Direction: higher = stronger binding
Shared flanks, not repeated: GCCTAGCAC … GTCTTGATTCGCTTGACGCTGCTG
| Strand | log fluorescence [z-score] |
| --- | --- |
| GACCGTTTCGGGTATCGGGACGTGCTA | 7.43 |
| TTAGGTTTCCTTTCCCTTCAGTGCTAG | 1.83 |
| GTTCTTATCCTTCCCCTCTAGTGCTAG | 0.343 |
| TCATGTCTTCCCCTCTCACTGTGCTAG | 0.0815 |
| TGAGATCTCAGTATCGATTAGTGCTAG | 6.96 |
| TCAGTTACCCATCTCAAACTGTGCTAG | 0.156 |
| AGCCTTATCCCTAATCTCAGCGTGCTA | -0.198 |
| TTAGGACTGCATTTCCTTTAGTGCTAG | 0.0351 |
| GGCGAACTGGGGACTGGAGACGTGCTA | -0.866 |
| TTAGATATCGGGTTTCGATTCGTGCTA | 7.1 |
| GACGATATCGGGGTTCGAGACGTGCTA | 0.987 |
| TTCGGTATCCTACTGCTTTAGTGCTAG | 0.766 |
| AACAGGAGCAGATGGGAAGTGTGCTAG | -0.325 |
| TTAGGACTGGGGTATCGGGTAGTGCTA | 0.543 |
| TTAGGTTTCGACTTTCGGTTCGTGCTA | 10.4 |
| GTCGGACTGGGTATCGGGACGTGCTAG | 0.235 |
| TCAACTTGGAATTTCCCACTGTGCTAG | 0.17 |

Block 3
Target: Centromere-binding protein 1, full length, N-terminal tag (CBF1, Saccharomyces cerevisiae, UniProt P17106, residues 1-351)
UniProt P17106, sequence (whole entry, looked up): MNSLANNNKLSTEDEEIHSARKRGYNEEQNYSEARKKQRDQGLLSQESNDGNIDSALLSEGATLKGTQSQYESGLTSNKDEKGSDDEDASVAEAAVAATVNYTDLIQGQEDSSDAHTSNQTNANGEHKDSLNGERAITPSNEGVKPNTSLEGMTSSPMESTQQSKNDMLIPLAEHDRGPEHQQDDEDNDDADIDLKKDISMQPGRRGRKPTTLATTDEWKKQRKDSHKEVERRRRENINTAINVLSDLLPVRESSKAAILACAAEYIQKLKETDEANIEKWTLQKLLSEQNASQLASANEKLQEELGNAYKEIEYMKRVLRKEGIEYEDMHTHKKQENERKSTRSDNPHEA
Method: protein-binding microarray
Form: double-stranded DNA, one strand shown
Matrix: in vitro
Tested at: 0.8 µM
Notes: whole 60-bp probe, no competitor
Direction: higher = stronger binding
Shared flanks, not repeated: … GTCTTGATTCGCTTGACGCTGCTG
| Strand | fluorescence intensity [a.u.] |
| --- | --- |
| CTACCTGTAGCTACCATCAGCAATCCATGGTGCTTC | 503 |
| CTAATGCATATTGAAAACATCACGGGAACGAGATTC | 1830 |
| CTACTCGAGTTTACCATGTGAACCGAAGGCATGTTC | 624 |
| CTAATTGAAAACAGTCATCTGATTTAATGGAAGTTC | 1140 |
| CTATCCCGCAGTCCTGGCGTGATAAGCCACTGCTTC | 544 |
| TGTACGAAGCTATATGATGCAATTATAGTAGTTAGG | 503 |
| GAAGGGTTTATGCAACACGCGATATATAAGCATTAG | 640 |
| GAATGTTCTTAATATCATATGACCTCTGCAACATAG | 1450 |
| GAACTTTTTCCTTATCACGTTGAGCCATTAGTATAG | 1180 |
| CTACATCTGTACCACCACATGCTGTGTAGTTATTTC | 623 |
| CCTAACTACTATAATCACGCAACATAGCTTCGTACA | 645 |
| GAAGCCGCCCTTGCGCACGGGACCCAGGCTGGATAG | 1800 |
| CTAGACATGAGCCCACTGATGACCATTGCTGCCTTC | 519 |
| TGTACGAAGCTATCTCATGTGATTATAGTAGTTAGG | 893 |
| CTAAGGAAAAAAGGTGGCGTCGAAGACTGCTAGTTC | 531 |
| TGTACGAAGCTATCTCACATGGTTATAGTAGTTAGG | 652 |
| TGTACGAAGCTATTTCTGATGTTTATAGTAGTTAGG | 537 |
| GAATTTCATTACCCGGACGTGGTGTTTTTTGTTTAG | 498 |
| CTATGGTGCTCCCGTTACGTGGTCATCGAAGAATTC | 572 |
| CTATAAAGAGGGACTCATATGATCTTATGAAATTTC | 554 |

Block 4
Target: PABPC1L2, full length, GST fusion (mouse, UniProt A0ABA7IW68)
Method: RNAcompete
Form: RNA
Matrix: in vitro
Tested at: 20 nM
Notes: 7-mer, probes averaged, single round
Reference: mean of 7-mers
Direction: higher = stronger binding
Construct (chain): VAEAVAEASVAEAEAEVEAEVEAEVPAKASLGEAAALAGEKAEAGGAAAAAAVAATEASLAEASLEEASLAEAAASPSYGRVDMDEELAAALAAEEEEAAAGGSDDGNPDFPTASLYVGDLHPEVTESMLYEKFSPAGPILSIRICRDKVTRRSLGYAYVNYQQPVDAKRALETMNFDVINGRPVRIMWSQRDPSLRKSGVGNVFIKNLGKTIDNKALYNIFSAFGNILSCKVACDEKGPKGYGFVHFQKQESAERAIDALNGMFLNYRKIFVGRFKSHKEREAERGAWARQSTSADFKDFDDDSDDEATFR
| Strand | 7-mer Z-score |
| --- | --- |
| CUCCCGC | -0.356 |
| CCACCUC | -0.213 |
| AGGUAAA | 0.762 |
| GCAUUAG | -0.0844 |
| GUAGAUG | -0.012 |
| AUCCAGU | -0.17 |
| CCCUGAU | -0.229 |
| GGUUUAU | -0.224 |
| UGCUUCG | -0.427 |
| ACAUGUC | -0.00833 |
| AUAGCGG | -0.119 |
| AAAGCCA | 0.767 |
| AAAAUGG | 5.55 |
| GCGAUGA | -0.0609 |
| GGCGCCC | -0.32 |
| CCGGAGC | -0.104 |
| UACUUGA | -0.079 |
| AUAGGCG | 0.318 |
| UAUCUGA | -0.122 |
| GAGUUUG | -0.371 |
| CUAAGGG | 0.149 |
| CCCGCGA | -0.139 |
| CCCCCGU | -0.485 |
| AGAUGAG | -0.135 |
| UUGUCCC | -0.42 |

Block 5
Target: Histone acetyltransferase KAT6A, winged helix 2, GST fusion (KAT6A, Homo sapiens, UniProt Q92794, residues 85-181)
Method: protein binding microarray
Form: double-stranded DNA, one strand shown
Matrix: in vitro
Tested at: not given
Notes: 8-mer, flanks averaged, mean of 2 arrays, mostly near background
Reference: not given
Direction: higher = stronger binding
Target sequence (chain): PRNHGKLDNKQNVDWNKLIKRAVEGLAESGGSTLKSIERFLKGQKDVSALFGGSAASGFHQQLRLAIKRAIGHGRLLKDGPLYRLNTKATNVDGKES
| Strand | E-score |
| --- | --- |
| CCTTGCAG | 0.173 |
| ATCTGACA | -0.0595 |
| GTAAACGA | 0.0901 |
| CAAGCCAG | 0.098 |
| GGCTCGAA | 0.125 |
| AGGCTGCC | 0.0684 |
| AGGCTTTG | -0.0215 |
| AACGCGAC | -0.0962 |
| GAAGAGTC | -0.154 |
| GTCCCATA | -0.124 |
| CTATAAAA | -0.00845 |
| ACCCCCCA | -0.123 |
| AGCTGCCC | 0.189 |
| ATGCAAAC | -0.0544 |
| TAAACTCA | -0.00822 |
| CTATGAAC | 0.123 |
| CGGTAAAC | -0.14 |
| CGACATGC | 0.0538 |
| CCGTTTCC | 0.0112 |

Repeated from above (block 5):
| Strand | E-score |
| --- | --- |
| ATGCAAAC | -0.0544 |
| CTATGAAC | 0.123 |
| CTATAAAA | -0.00845 |
| ATCTGACA | -0.0595 |
| AACGCGAC | -0.0962 |
| TAAACTCA | -0.00822 |
| ACCCCCCA | -0.123 |
| CCGTTTCC | 0.0112 |
| AGGCTTTG | -0.0215 |
| CAAGCCAG | 0.098 |
